Literature values as cited in several papers.
Protocols differ between the studies behind these lines. Numbers after ± are the reported error.
Chain of UniProt Q9NYY3 (whole entry, looked up): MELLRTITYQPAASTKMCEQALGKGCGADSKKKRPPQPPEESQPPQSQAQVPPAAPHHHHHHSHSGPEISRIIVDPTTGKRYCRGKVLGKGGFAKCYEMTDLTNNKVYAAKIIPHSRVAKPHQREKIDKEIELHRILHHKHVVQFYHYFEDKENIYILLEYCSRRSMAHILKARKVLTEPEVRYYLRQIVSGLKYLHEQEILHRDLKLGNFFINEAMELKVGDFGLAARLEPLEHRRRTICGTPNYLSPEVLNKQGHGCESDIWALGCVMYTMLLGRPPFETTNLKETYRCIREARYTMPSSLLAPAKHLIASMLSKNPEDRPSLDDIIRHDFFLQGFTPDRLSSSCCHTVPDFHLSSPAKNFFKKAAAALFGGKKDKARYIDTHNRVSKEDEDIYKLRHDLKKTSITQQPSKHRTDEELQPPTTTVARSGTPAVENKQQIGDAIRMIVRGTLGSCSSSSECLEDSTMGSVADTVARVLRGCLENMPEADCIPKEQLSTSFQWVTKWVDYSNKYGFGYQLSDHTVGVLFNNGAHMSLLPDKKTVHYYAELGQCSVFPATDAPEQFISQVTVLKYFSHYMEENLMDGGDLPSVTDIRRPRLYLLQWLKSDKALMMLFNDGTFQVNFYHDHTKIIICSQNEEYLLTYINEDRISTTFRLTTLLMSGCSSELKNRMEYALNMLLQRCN
Chain of UniProt Q12809 (whole entry, looked up): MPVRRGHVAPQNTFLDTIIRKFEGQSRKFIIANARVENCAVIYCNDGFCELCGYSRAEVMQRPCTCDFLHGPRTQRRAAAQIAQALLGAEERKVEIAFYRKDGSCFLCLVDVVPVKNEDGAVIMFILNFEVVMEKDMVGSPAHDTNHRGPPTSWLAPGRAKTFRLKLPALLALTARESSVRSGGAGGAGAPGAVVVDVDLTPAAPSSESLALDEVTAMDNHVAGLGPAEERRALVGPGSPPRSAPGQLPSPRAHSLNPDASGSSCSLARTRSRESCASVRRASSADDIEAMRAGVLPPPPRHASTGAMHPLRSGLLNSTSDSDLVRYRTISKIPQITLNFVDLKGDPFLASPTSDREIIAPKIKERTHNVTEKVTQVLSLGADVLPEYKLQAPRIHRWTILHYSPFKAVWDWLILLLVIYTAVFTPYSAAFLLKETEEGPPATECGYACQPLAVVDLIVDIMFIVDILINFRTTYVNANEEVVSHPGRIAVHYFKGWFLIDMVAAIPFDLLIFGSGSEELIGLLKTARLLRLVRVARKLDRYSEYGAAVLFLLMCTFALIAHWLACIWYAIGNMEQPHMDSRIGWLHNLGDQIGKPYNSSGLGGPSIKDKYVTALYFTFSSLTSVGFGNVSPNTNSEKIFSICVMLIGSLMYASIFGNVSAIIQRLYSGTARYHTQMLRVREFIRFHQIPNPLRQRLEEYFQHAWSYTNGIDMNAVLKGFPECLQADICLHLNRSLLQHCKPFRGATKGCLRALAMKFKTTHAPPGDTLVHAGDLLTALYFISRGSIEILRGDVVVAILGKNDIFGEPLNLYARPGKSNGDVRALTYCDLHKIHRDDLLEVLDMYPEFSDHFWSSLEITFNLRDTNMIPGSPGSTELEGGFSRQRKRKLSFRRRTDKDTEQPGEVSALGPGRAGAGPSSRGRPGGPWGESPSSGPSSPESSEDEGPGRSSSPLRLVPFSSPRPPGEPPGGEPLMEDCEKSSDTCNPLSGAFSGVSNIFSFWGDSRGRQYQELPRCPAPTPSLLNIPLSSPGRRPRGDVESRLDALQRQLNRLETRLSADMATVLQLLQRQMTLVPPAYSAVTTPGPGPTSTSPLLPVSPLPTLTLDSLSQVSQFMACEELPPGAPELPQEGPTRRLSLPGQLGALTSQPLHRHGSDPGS

| SMILES | target or system | test | test system | conditions | scale | measurement | value |
| --- | --- | --- | --- | --- | --- | --- | --- |
| COc1c(N2C[C@@H]3CCCN[C@@H]3C2)c(F)cc2c(=O)c(C(=O)O)cn(C3CC3)c12 | OCT1 | inhibitor |  |  |  | IC50 | 47 µM |
| COC(=O)N[C@H](C(=O)N1CCC[C@H]1c1nc(-c2ccc3c(c2)O[C@@H](c2ccccc2)n2c-3cc3cc(-c4c[nH]c([C@@H]5CCCN5C(=O)[C@@H](NC(=O)OC)C(C)C)n4)ccc32)c[nH]1)C(C)C | human BCRP (ABCG2) |  |  | literature geometric mean |  | IC50 | 0.15 µM |
| CCNS(=O)(=O)C(F)(F)C(F)(F)C(F)(F)C(F)(F)C(F)(F)C(F)(F)C(F)(F)C(F)(F)F | CYP2C9 | inhibitor |  |  |  | IC50 | 1.88 ± 0.47 µM |
| CC(O)c1cc(C(=O)N[C@@H](C)Cn2ccc(-c3ccc(C#N)c(Cl)c3)n2)[nH]n1 (stereo partly drawn) | human BCRP (ABCG2) |  |  | literature geometric mean |  | IC50 | 1.31 µM |
| Nc1cc(C(F)(F)F)c(-c2nc(N3CCOCC3)nc(N3CCOCC3)n2)cn1 | PLK2 (Homo sapiens, UniProt Q9NYY3) | enzyme activity |  | 10 µM | baseline: untreated | remaining activity | 65% |
| CO/N=C(\C(=O)N[C@@H]1C(=O)N2C(C(=O)O)=C(CSc3nc(=O)c(=O)[nH]n3C)CS[C@H]12)c1csc(N)n1 | MRP4 | inhibitor |  |  |  | IC50 | 150 µM |
| O=C1CCc2cc(OCCCCc3nnnn3C3CCCCC3)ccc2N1 | KCNH2 (Homo sapiens, UniProt Q12809) | inhibitor |  |  |  | IC50 | 13.8 µM |
| C=C(C)[C@@H]1CC[C@]2(C)CC[C@]3(C)[C@H](CC[C@@H]4[C@@]5(C)CC[C@H](O)C(C)(C)[C@@H]5CC[C@]43C)[C@@H]12 | rat CYP1A2 | inhibitor | rat liver microsomes |  |  | IC50 | 59.4 µM |
| FC1(F)C(F)(F)C(F)(F)C2(F)C(F)(F)C(F)(F)C(F)(F)C(F)(F)C2(F)C1(F)F (stereo not drawn) | CYP1A2 | inhibitor |  | Tox21 screening |  | IC50 | inactive |
| C#Cc1cccc(Nc2ncnc3cc(OCCOC)c(OCCOC)cc23)c1 | ABCG2 |  | HEK293-ABCG2 |  |  | IC50 | 2.5 µM |
| COC[C@H]1C[C@@H](c2ncc(-c3ccc4c(c3)COc3cc5c(ccc6nc([C@@H]7CC[C@H](C)N7C(=O)[C@@H](NC(=O)OC)C(C)C)[nH]c65)cc3-4)[nH]2)N(C(=O)[C@H](NC(=O)OC)c2ccccc2)C1 | human BCRP (ABCG2) |  |  | literature geometric mean |  | IC50 | 0.3 µM |
| C[C@@H]1O[C@@H](OC[C@H]2O[C@@H](Oc3c(-c4ccc(O)c(O)c4)oc4cc(O)cc(O)c4c3=O)[C@H](O)[C@@H](O)[C@@H]2O)[C@H](O)[C@H](O)[C@H]1O | CYP2C |  |  |  |  | IC50 | > 100 µM |
| CNC(C)C1CCC(N)C(OC2C(N)CC(N)C(OC3OCC(C)(O)C(NC)C3O)C2O)O1 (stereo not drawn) | Klebsiella pneumoniae |  | clinical isolate RKI-No_94/15 |  |  | MIC | > 8 µg/mL |
| O=S(=O)(O)C(F)(F)F | CYP3A4 | inhibitor |  | Tox21 screening |  | IC50 | inactive |
| C[C@H]1COCCN1c1nc(-c2cnc(N)cc2C(F)F)nc(N2CCOCC2)n1 | BXPC-3 |  |  |  |  | GI50 | 0.347 µM |
| Cc1cccc(-c2[nH]c(CNc3ccccc3F)nc2-c2ccc3ncnn3c2)n1 | MRP1 | transport activity, inhibitor |  |  |  | IC50 | > 100 µM |
| CCC(C)n1ncn(-c2ccc(N3CCN(c4ccc(OCC5COC(Cn6cncn6)(c6ccc(Cl)cc6Cl)O5)cc4)CC3)cc2)c1=O (stereo not drawn) | human BCRP (ABCG2) |  |  | literature geometric mean |  | IC50 | 3.36 µM |
| COc1cc2c(c(OC)c1OC)-c1c(cc3c(c1OC)OCO3)CC(C)C(C)C2 (stereo not drawn) | CYP3A, rat | enzyme activity, inhibitor | rat liver microsomes |  |  | IC50 | 5.5 µM |
| FC(F)(F)C(F)(F)C(F)(F)C(F)(F)C(F)(F)C(F)(F)C(F)(F)C(F)(F)Br | CYP3A4 | inhibitor |  | Tox21 screening |  | IC50 | inactive |
| CC1(C)S[C@@H]2[C@H](NC(=O)[C@H](N)c3ccccc3)C(=O)N2[C@H]1C(=O)O | Klebsiella pneumoniae |  | clinical isolate RKI-No_94/15 |  |  | MIC | > 16 µg/mL |
| Cc1[nH]c(C)c(-c2ccc(Oc3ccc(F)cc3)cc2)c(=O)c1Cl | Plasmodium falciparum | whole cell extended time | 3D7 | 72 h |  | IC50 | 0.05 µM |
| CCCS(=O)(=O)Nc1ccc(F)c(C(=O)c2c[nH]c3ncc(-c4ccc(Cl)cc4)cc23)c1F | ABCG2 |  | S1-M1-80 |  |  | IC50 | 2.6 µM |
| COc1cc(Nc2ncc(F)c(Nc3ccc4c(n3)NC(=O)C(C)(C)O4)n2)cc(OC)c1OC | BCRP (ABCG2) | inhibitor |  | literature maximum |  | IC50 | 2.51 µM |
| NS(=O)(=O)C(F)(F)C(F)(F)C(F)(F)C(F)(F)C(F)(F)C(F)(F)C(F)(F)C(F)(F)F | CYP2C9 | inhibitor |  |  |  | IC50 | 0.71 ± 0.08 µM |
| CNC(=O)c1c(C)oc2cc(Oc3ncnc4cc(OC)c(OC)cc34)ccc12 | BCRP | transport, inhibitor |  | in vitro |  | IC50 | 1.29 µM |
| Cc1ccc2[nH]c(C)c(Br)c(=O)c2c1 | Plasmodium falciparum | whole cell extended time | 3D7 | 72 h |  | IC50 | 0.81 µM |
| CNCc1cn(S(=O)(=O)c2cccc(F)c2)c(-c2ccc(F)cc2F)c1OC | P-glycoprotein | efflux transport |  |  |  | IC50 | > 100 µM |
